Measurements collected from several papers.
Lines come from different studies, so protocols differ.
Target: Tyrosine-protein kinase SYK (SYK, Homo sapiens, UniProt P43405)

SMILES | assay | setting | how to read | quantity | value
C[C@@H](c1ccc(-n2cnc3c(N)ncnc32)cc1)N1CCc2nn(C)c(Cc3ccccc3)c2C1=O | KINOMEscan | 0.1 µM | relative to: DMSO control | remaining binding | 100%
COc1cc(F)ccc1-c1ncnc(Nc2cccc(C[S@](C)(=N)=O)c2)n1 | kinase activity | 10 µM, with: 10 µM ATP | – | remaining activity | 61%
O=C(NC1CCC1)c1ccc2nc(-c3cccc(NS(=O)(=O)NCCN4CCCCC4)c3)cn2c1 | enzyme activity | 10 µM | – | remaining activity | 100%
C=CC(=O)N1CCC[C@@H](n2nc(-c3ccc(Oc4ccccc4)cc3)c3c(N)ncnc32)C1 | – | 10 µM | – | remaining activity | 66.4%
CCN(CC)c1ccc(C2=NNC(=O)CC2C)cc1[N+](=O)[O-] (centres unmarked) | enzyme activity, inhibitor | 10 µM | relative to: vehicle | remaining activity | 69%
COc1cc(N2CCN(C)CC2)ccc1Nc1nc(N)n(C(=S)NCc2c(Cl)cccc2Cl)n1 | enzyme activity | 10 µM | relative to: control | remaining activity | 3.8%
Cc1[nH]c(/C=C2\C(=O)Nc3ccc(F)cc32)c(C)c1C(=O)N[C@H]1CCN(C(=O)N(C)C)C1 | kinase activity, inhibitor | 1 µM | relative to: no-compound control | remaining activity | 113%
C1=C/COCc2cc(ccc2OCCN2CCCC2)Nc2nccc(n2)-c2cccc(c2)COC/1 | – | concentration not given | relative to: DMSO control | remaining binding | 87%
C=CC(=O)N1CCC(C(=O)NCC(=O)N2CCN(c3nc(-c4cnc(N)nc4C(F)F)nc(N4CCOCC4)n3)CC2)CC1 | KINOMEscan | 1 µM | – | remaining binding | 86%
O=C1NC(=O)/C(=C/c2ccc(-c3ccc(F)cc3O)o2)S1 | enzyme activity | 10 µM | – | remaining activity | 55%
COc1cc(-c2cncc3c2CN(C)Cc2cc(N4CCNCC4)ccc2-3)cc(OC)c1OC | kinase activity | 1 µM, human enzyme, with: ATP 10 µM | relative to: DMSO control | remaining activity | 84%
CCCOc1ccc(OC)c(F)c1C(=O)c1ccc(C(=O)N[C@@H]2CNC[C@H]2NC(=O)c2ccc3[nH]ncc3c2)cc1 | enzyme activity | 10 µM | – | remaining activity | 50%
C=CC(=O)N1CCC(COCC(=O)N2CCN(c3nc(-c4cnc(N)nc4C(F)F)nc(N4CCOC[C@@H]4C)n3)CC2)CC1 | KINOMEscan | 1 µM | relative to: DMSO control | remaining binding | 96%
Cc1cc(Nc2cc(N3CCN(C)CC3)nc(Sc3ccc(NC(=O)C4CC4)cc3)n2)[nH]n1 | kinase activity, KinaseProfiler | 0.03 µM, species human | relative to: control | remaining activity | 98%

Repeated from above:
SMILES | assay | setting | how to read | quantity | value
O=C1NC(=O)/C(=C/c2ccc(-c3ccc(F)cc3O)o2)S1 | enzyme activity | 10 µM | – | remaining activity | 55%
